Measured values of several laboratories.
Every numbered part comes from another study and shows a few of its results, in no order. Positions count from the first letter of the parent shown.

Study 1 — technique: EMSA with sequencing; form: double-stranded DNA, one strand shown; medium: in vitro; concentration: 10 and 20 nM; relative to: negative control set to 0; reading: higher = stronger binding; measurement: normalised bound fraction
Target: Hepatocyte nuclear factor 3-alpha (Foxa1, Mus musculus, UniProt P35582, residues 1-468, full length assumed)
Sequence of UniProt P35582 (whole entry, looked up): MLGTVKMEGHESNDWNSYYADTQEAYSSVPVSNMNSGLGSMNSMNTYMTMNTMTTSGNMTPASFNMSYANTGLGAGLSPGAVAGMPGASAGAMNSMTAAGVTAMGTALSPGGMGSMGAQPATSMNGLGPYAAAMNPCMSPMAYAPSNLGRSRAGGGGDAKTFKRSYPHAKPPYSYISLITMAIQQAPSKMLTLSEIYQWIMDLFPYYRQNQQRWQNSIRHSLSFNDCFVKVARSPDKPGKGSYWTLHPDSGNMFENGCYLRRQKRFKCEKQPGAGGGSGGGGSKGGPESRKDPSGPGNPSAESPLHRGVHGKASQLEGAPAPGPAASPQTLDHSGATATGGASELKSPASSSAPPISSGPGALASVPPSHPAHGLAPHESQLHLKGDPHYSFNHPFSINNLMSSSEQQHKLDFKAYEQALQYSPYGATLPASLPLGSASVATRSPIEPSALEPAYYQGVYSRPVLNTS
Setting: whole designed probe, mean of two concentrations, ends assumed
Constant ends, left off below: GTGAGCGGTGCCCATTGATGGGGAAC … TTTCACTGGGATCGTGGGGAC
CCAAACAACTCCCACAATGTCCTTCCTACTGATGCATAACTGGTATTTAATAACAAACTATTTGCATTTTAAATTACTTTGTGTGCACTGGATGTTTACTCTGATCTGATCATAAGAAGTATTTTGCCTTGAGGAGGAGTTATGCTGCAGACAAAATTAACTCTCGATTAAAAATTCTACATAATCTTTAAAA: 0.336 ratio
GTGGGTAACTGAGAGAAAGCCATAAAGGTAAAGTGGCATGTTAATCACATCATATCGATGATACATACTATTCATATGATTTATGATTATTGAAGATGGCCTTGATGACCTTGCTGAGATAGTATTTGTCAGGTTTCTCCACTGTAAAACTCCCCCATTTCTATATCGTACTCTTTGAAGGAAGTGACAATGT: -0.0502 ratio
ATCTTCCCCCTCTTCCTTGCCCCACCAGCTCACCTACGGGGGTTATTTGCAGATAGGAAAATAAATAAAGCCGGCATTCGTTAACGCAGTTCTGGCGCAAACTGCTGTTTGCTCTGCATGAATCATGGTCCTTACGCGAGGCGTGGCTCCGGGAGAGCAAAGCACCGTGTCAGGCGCATGATCCGGGGTGGCC: 0.356 ratio
AATAGCGCTCTGGAGAGAAGGTCCGTTCCATGCCCAGGTAGGGAGGAGGGGGAAAAATGATACTGGCGGGCAGGGAGAGGGGAAGGCAAGAAAGCAATCTGGCGTGGAAGAGCTGTGACGTCAAATCTGACTTCTTTTGTCTGTAGACGGGGGAATCCAGGGTGACTGGGTATAATCTGTATTATCTAGGTCC: -0.0694 ratio
ATATCATAATTAATAGGACTTAGTCTCCATTAACCCCCAAAATAACATCAAAATAGTCTCCCAAAAATATAATTGATTTTTATGAGAACTTAATGTAATCTTGCAACAAGAGATCCACTCTCAACCCTTCATGTAAACACATCTGTTGCTAATCATACGTTCAGAATCCCTTGCTTAGAGTATAGGCATAGTC: 0.0383 ratio

Study 2 — technique: competition protein-binding microarray; form: double-stranded DNA, one strand shown; medium: in vitro; concentration: 2 µM; added: Pho4 competitor, 0.05 µM; reading: higher = stronger binding; measurement: fluorescence intensity; constant ends, left off below: … GTCTTGATTCGCTTGACGCTGCTG
Target: Centromere-binding protein 1, full length, His-tagged (CBF1, Saccharomyces cerevisiae, UniProt P17106, residues 1-351)
Sequence of UniProt P17106 (whole entry, looked up): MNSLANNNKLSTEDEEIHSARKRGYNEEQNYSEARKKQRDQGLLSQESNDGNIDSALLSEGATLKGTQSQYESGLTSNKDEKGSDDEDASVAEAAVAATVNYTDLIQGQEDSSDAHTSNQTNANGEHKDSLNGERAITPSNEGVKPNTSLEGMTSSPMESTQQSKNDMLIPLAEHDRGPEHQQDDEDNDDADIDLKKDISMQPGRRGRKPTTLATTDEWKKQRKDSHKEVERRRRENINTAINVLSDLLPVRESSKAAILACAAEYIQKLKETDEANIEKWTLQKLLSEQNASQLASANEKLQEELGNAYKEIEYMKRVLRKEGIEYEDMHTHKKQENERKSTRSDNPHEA
Setting: whole 60-bp probe, lowest competitor level
AACCGTAACGCTGATAACGTGGATTAGATCTTGGAG: 90.3 a.u.
CGGGGTTAAGTTTGTCACGTGACTTGCTTGCAGCAG: 30400 a.u.
AAGAATCTAAGCCAACACGCACAATAGACTCGAATG: 79.1 a.u.
CCGTCAACGGTCAAGCCCGTGACAAAGCCACAATGA: 163 a.u.
AGAAGAGGCATATCGCACGTTTTACCGGGTCAGAAA: 73 a.u.
GTCGTCTATGGGTGTTGCGTGGGTAGTTCTCGCGCT: 83.1 a.u.
CTAACGAAGGTTTGACACGTGTTTTACAAGCCAAGT: 1590 a.u.
CATACCCAACCTTGTGCAGTGGGTGAAGATATTTGT: 73.2 a.u.

Study 3 — target: CEP164, C-terminal peptide (human); technique: DHFR complementation, deep sequencing; medium: yeast; relative to: wild type; reading: higher = weaker binding; measurement: binding free energy change
Setting: single substitutions, model-inferred values
Starting sequence: PDZK1, PDZ domain 2 (human); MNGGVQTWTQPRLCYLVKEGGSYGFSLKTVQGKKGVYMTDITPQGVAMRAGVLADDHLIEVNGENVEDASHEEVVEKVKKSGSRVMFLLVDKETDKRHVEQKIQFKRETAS; partner HNRVKVYRF
F105E: -0.354 kcal/mol
R49C: 0.366 kcal/mol
Q101K: -0.112 kcal/mol
H71F: -1.52 kcal/mol
L88S: -0.00181 kcal/mol
I59M: 0.272 kcal/mol
E93L: -0.137 kcal/mol
S22K: 0.205 kcal/mol

Single results of other studies
COc1cc(C(=O)N2CCC(N3CCN(C)CC3)CC2)ccc1Nc1ncc2c(n1)N(C)c1ccccc1C(=O)N2C  inhibition (PIK3CD human; KiNativ profiling; human PBMC; 0.1 µM, ATP site, added: ADP acyl phosphate probe): -5.2%
